{"data": "Results pooled from the literature", "note": "Each numbered part is a random draw from the data of one study; scales do not carry over between parts.", "chain of UniProt P36896 (whole entry, looked up)": "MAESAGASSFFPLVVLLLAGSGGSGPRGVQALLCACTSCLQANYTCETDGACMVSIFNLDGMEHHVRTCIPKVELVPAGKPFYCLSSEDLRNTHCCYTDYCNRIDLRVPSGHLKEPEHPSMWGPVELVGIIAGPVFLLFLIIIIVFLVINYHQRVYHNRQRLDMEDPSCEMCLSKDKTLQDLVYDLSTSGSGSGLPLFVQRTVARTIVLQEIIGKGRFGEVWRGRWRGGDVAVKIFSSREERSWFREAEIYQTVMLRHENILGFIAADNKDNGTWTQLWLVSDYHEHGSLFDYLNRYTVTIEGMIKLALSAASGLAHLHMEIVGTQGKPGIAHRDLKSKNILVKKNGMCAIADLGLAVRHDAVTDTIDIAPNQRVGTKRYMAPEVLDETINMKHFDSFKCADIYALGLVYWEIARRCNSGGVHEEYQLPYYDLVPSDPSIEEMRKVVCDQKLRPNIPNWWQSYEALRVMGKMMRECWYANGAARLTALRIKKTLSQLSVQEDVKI", "chain of UniProt P30291 (whole entry, looked up)": "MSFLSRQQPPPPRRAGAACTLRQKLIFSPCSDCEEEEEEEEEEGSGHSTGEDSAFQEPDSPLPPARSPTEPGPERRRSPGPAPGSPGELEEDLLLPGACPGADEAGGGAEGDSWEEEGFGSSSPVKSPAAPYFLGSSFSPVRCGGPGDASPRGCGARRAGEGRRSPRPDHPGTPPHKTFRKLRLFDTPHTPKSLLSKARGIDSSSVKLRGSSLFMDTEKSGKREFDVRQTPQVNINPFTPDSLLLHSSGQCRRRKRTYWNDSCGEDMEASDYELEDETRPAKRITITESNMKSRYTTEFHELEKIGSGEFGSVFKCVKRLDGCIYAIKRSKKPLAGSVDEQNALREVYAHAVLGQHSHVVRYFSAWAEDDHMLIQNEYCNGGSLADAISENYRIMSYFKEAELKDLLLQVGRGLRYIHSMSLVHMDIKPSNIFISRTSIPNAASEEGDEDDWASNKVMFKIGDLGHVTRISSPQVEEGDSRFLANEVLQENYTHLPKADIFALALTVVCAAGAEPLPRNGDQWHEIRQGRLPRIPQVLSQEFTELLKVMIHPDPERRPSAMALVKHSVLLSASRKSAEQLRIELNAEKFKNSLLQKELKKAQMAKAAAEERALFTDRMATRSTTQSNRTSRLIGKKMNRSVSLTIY", "chain of UniProt Q12866 (whole entry, looked up)": "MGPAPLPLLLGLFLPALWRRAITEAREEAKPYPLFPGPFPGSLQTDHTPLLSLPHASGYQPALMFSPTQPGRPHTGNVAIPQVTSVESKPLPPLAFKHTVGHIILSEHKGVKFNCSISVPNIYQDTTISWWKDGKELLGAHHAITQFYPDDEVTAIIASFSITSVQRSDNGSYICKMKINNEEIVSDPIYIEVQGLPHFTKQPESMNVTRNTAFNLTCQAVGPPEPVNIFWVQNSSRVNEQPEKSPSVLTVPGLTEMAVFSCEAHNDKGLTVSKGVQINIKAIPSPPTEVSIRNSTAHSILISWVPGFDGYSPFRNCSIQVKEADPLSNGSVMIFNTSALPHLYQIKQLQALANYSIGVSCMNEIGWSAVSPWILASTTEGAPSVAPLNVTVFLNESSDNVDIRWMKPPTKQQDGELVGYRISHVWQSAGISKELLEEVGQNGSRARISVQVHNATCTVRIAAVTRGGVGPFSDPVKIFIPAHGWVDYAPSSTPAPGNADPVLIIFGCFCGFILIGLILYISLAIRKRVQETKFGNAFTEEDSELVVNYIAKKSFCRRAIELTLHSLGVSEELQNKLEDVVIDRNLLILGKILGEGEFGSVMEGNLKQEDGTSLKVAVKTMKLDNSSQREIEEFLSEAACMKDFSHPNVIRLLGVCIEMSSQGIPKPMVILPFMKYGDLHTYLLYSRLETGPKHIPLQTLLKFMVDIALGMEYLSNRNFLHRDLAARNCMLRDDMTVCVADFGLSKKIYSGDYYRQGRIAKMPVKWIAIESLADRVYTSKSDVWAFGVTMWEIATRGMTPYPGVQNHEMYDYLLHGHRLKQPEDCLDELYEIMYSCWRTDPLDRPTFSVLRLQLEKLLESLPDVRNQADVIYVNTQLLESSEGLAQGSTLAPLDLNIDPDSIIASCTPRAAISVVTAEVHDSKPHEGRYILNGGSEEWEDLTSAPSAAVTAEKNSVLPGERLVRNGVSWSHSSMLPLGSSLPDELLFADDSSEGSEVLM", "chain of UniProt O75676 (whole entry, looked up)": "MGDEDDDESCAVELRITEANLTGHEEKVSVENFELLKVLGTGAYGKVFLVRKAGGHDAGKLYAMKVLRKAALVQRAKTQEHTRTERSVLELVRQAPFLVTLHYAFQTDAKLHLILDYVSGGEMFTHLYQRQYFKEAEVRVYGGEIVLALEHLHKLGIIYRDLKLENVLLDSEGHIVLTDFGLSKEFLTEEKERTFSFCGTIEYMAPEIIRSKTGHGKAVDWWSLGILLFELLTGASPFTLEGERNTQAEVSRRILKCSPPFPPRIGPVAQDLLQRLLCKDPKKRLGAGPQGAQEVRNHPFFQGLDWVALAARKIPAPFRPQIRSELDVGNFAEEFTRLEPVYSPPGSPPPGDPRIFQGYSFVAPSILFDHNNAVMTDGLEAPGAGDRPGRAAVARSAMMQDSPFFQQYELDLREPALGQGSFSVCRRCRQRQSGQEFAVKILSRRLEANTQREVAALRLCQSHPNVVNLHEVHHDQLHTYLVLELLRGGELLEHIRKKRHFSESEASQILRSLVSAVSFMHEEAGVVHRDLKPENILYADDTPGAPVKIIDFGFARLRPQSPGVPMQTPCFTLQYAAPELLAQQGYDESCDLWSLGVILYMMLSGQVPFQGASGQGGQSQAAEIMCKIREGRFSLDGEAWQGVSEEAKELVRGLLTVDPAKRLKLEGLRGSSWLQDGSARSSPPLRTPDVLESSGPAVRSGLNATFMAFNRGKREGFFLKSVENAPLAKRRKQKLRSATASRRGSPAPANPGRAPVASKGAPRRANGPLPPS", "chain of UniProt Q8TF76 (whole entry, looked up)": "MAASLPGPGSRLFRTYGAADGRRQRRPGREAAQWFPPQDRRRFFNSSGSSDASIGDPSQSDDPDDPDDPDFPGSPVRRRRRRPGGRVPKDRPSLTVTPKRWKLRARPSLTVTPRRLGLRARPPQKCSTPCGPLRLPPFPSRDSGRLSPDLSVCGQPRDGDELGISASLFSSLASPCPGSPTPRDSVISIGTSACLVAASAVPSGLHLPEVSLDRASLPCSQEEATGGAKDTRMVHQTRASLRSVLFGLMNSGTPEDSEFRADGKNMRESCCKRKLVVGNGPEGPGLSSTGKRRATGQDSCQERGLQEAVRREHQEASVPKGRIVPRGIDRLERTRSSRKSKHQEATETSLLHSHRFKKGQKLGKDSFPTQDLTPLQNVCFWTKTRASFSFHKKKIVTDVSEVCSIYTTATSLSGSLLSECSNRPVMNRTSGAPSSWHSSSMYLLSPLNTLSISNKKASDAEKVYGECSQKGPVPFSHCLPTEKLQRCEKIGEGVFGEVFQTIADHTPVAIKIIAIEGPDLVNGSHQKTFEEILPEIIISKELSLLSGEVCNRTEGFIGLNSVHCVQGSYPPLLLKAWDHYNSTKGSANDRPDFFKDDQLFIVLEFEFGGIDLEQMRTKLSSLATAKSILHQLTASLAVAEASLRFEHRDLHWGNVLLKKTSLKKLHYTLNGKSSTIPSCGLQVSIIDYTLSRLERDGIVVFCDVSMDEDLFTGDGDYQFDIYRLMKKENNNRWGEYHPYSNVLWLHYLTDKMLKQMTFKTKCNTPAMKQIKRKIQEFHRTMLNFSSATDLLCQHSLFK", "chain of UniProt P00519 (whole entry, unmodified, looked up)": "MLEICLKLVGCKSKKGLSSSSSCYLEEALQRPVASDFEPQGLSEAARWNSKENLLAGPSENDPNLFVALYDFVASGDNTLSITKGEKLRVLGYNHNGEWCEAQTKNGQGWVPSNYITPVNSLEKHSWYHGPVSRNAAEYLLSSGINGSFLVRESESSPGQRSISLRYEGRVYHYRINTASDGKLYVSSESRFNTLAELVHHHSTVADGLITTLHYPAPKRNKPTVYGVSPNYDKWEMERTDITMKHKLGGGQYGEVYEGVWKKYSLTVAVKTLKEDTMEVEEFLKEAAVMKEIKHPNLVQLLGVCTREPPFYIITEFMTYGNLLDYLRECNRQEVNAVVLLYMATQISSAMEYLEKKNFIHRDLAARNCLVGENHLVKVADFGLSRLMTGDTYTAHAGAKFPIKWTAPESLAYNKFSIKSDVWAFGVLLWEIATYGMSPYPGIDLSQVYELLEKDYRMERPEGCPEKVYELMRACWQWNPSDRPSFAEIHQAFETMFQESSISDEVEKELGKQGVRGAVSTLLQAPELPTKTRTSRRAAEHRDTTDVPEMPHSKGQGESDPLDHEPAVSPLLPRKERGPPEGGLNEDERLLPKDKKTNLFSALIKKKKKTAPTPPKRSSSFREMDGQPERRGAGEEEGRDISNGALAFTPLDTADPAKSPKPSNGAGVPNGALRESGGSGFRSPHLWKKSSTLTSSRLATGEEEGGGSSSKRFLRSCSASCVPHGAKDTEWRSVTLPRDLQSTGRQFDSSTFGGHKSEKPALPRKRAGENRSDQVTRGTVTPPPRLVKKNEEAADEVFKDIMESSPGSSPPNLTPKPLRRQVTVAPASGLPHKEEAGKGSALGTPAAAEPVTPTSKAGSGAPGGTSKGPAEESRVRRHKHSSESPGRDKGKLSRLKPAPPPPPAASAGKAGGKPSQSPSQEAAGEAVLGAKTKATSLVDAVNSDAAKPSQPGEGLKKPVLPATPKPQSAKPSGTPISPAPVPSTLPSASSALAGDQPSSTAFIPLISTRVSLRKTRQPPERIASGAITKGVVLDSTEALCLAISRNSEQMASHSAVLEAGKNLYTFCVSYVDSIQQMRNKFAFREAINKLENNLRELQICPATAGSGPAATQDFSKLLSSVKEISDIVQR"}
{"data": "Sample 1", "Structure (SMILES)": "CNC(=O)Nc1ccc2c(c1)[C@@]1(CC2)OC(=O)N(CC(=O)N(Cc2ccc(F)cc2)[C@@H](C)C(F)(F)F)C1=O", "effect on": "cell-free assay", "method": "competition with immobilised ligand", "concentration": "1 µM"}
{"target": "Tyrosine-protein kinase ABL1, non-phosphorylated (ABL1, Homo sapiens, UniProt P00519, F317L)", "remaining binding": "66%"}
{"target": "Receptor-type tyrosine-protein kinase FLT3, autoinhibited (FLT3, Homo sapiens, UniProt P36888)", "remaining binding": "92%"}
{"target": "Aurora kinase C (AURKC, Homo sapiens, UniProt Q9UQB9)", "remaining binding": "100%"}
{"target": "Ribosomal protein S6 kinase alpha-4, N-terminal kinase domain (RPS6KA4, Homo sapiens, UniProt O75676)", "remaining binding": "100%"}
{"target": "Mitogen-activated protein kinase kinase kinase 6 (MAP3K6, Homo sapiens, UniProt O95382)", "remaining binding": "82%"}
{"target": "Cyclin-dependent kinase 13 (CDK13, Homo sapiens, UniProt Q14004)", "remaining binding": "92%"}
{"target": "Dual specificity mitogen-activated protein kinase kinase 1 (MAP2K1, Homo sapiens, UniProt Q02750)", "remaining binding": "98%"}
{"target": "Epidermal growth factor receptor (EGFR, Homo sapiens, UniProt P00533, del746-750)", "remaining binding": "85%"}
{"target": "Receptor-type tyrosine-protein kinase FLT3 (FLT3, Homo sapiens, UniProt P36888, D835H)", "remaining binding": "99%"}
{"target": "Phosphatidylinositol 4,5-bisphosphate 3-kinase catalytic subunit alpha isoform (PIK3CA, Homo sapiens, UniProt P42336, E542K)", "remaining binding": "69%"}
{"target": "Activin receptor type-1B (ACVR1B, Homo sapiens, UniProt P36896)", "remaining binding": "100%"}
{"target": "Serine/threonine-protein kinase haspin (HASPIN, Homo sapiens, UniProt Q8TF76)", "remaining binding": "83%"}
{"target": "LIM domain kinase 2 (LIMK2, Homo sapiens, UniProt P53671)", "remaining binding": "90%"}
{"target": "Mitogen-activated protein kinase kinase kinase 19 (MAP3K19, Homo sapiens, UniProt Q56UN5)", "remaining binding": "73%"}
{"data": "Sample 2", "target": "Histone acetyltransferase KAT6A, both winged helices, GST fusion (KAT6A, Homo sapiens, UniProt Q92794, residues 1-181)", "method": "protein binding microarray", "molecule type": "double-stranded DNA, one strand shown", "sample": "in vitro", "concentration": "not given", "setting": "8-mer, flanks averaged, mean of 2 arrays, mostly near background", "relative to": "not given", "reading": "higher = stronger binding", "Residues (chain)": "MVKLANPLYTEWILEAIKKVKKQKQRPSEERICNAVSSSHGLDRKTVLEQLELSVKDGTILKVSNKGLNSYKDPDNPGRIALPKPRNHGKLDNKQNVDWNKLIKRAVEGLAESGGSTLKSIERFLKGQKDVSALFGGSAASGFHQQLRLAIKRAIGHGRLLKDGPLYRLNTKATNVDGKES"}
{"Strand": "AAGGGCGT", "E-score": 0.166}
{"Strand": "AAGGCAAG", "E-score": -0.281}
{"Strand": "CAACTCAG", "E-score": -0.146}
{"Strand": "ACCGGCGG", "E-score": 0.335}
{"Strand": "GCTCCGAC", "E-score": 0.0899}
{"Strand": "GAAGCTCC", "E-score": 0.0842}
{"Strand": "ACAAGGTG", "E-score": -0.0358}
{"Strand": "CCACGAAC", "E-score": -0.0124}
{"data": "Sample 3", "target": "Prothrombin, mature alpha-thrombin (F2, Homo sapiens, UniProt P00734)", "method": "aptamer microarray, sandwich", "molecule type": "DNA with 2'F-ANA", "sample": "in vitro", "concentration": "200 nM", "setting": "whole 15-mer aptamer, many near background", "together with": "Cy3 exosite-II aptamer, 400 nM", "reading": "higher = stronger binding", "strand": "GGTTGGTGTGGTTGG"}
{"Modification": "2'F-ANA at 3 5 6 7 8 9 12 14 15", "mean fluorescence intensity": "58.2 a.u."}
{"Modification": "2'F-ANA at 1 3 5 6 7 8 10 13", "mean fluorescence intensity": "51.9 a.u."}
{"Modification": "2'F-ANA at 1 2 3 5 7 11 12 13 14 15", "mean fluorescence intensity": "58.8 a.u."}
{"Modification": "2'F-ANA at 1 3 4 5 7 9 10 13 14 15", "mean fluorescence intensity": "72.8 a.u."}
{"Modification": "2'F-ANA at 1 2 3 5 6 7 9 12 13 14 15", "mean fluorescence intensity": "49.1 a.u."}
{"Modification": "2'F-ANA at 1 2 3 6 7 8 9 10 15", "mean fluorescence intensity": "84.8 a.u."}
{"Modification": "2'F-ANA at 2 3 6 7 11 13 14", "mean fluorescence intensity": "323 a.u."}
{"Modification": "2'F-ANA at 1 2 4 14", "mean fluorescence intensity": "52 a.u."}
{"data": "Sample 4", "Structure (SMILES)": "COc1cc2ncnc(N3CCN(C(=O)Nc4ccc(Oc5ccccc5)cc4)CC3)c2cc1OC", "effect on": "enzyme activity", "action": "inhibitor", "concentration": "0.5 µM", "relative to": "control"}
{"target": "Mitogen-activated protein kinase 3 (MAPK3, Homo sapiens, UniProt P27361)", "remaining activity [%]": 102}
{"target": "Casein kinase I isoform gamma-3 (CSNK1G3, Homo sapiens, UniProt Q9Y6M4)", "remaining activity [%]": 82.7}
{"target": "Tyrosine-protein kinase Mer (MERTK, Homo sapiens, UniProt Q12866)", "remaining activity [%]": 60}
{"target": "Angiopoietin-1 receptor (TEK, Homo sapiens, UniProt Q02763)", "remaining activity [%]": 92.6}
{"target": "Casein kinase I isoform gamma-2 (CSNK1G2, Homo sapiens, UniProt P78368)", "remaining activity [%]": 94.6}
{"target": "Fibroblast growth factor receptor 3 (FGFR3, Homo sapiens, UniProt P22607)", "remaining activity [%]": 99.9}
{"target": "Mitogen-activated protein kinase kinase kinase 5 (MAP3K5, Homo sapiens, UniProt Q99683)", "remaining activity [%]": 102}
{"target": "Macrophage-stimulating protein receptor (MST1R, Homo sapiens, UniProt Q04912)", "remaining activity [%]": 90.3}
{"target": "Serine/threonine-protein kinase ULK3 (ULK3, Homo sapiens, UniProt Q6PHR2)", "remaining activity [%]": 100}
{"target": "Glycogen synthase kinase-3 beta (GSK3B, Homo sapiens, UniProt P49841)", "remaining activity [%]": 99}
{"target": "Serine/threonine-protein kinase TAO2 (TAOK2, Homo sapiens, UniProt Q9UL54)", "remaining activity [%]": 96.3}
{"target": "Rhodopsin kinase GRK7 (GRK7, Homo sapiens, UniProt Q8WTQ7)", "remaining activity [%]": 95.7}
{"target": "Activin receptor type-1B (ACVR1B, Homo sapiens, UniProt P36896)", "remaining activity [%]": 94.7}
{"target": "Wee1-like protein kinase (WEE1, Homo sapiens, UniProt P30291)", "remaining activity [%]": 97.5}
{"note": "Repeated from above (sample 4):"}
{"target": "Angiopoietin-1 receptor (TEK, Homo sapiens, UniProt Q02763)", "remaining activity [%]": 92.6}
{"target": "Serine/threonine-protein kinase ULK3 (ULK3, Homo sapiens, UniProt Q6PHR2)", "remaining activity [%]": 100}
{"target": "Tyrosine-protein kinase Mer (MERTK, Homo sapiens, UniProt Q12866)", "remaining activity [%]": 60}
{"target": "Activin receptor type-1B (ACVR1B, Homo sapiens, UniProt P36896)", "remaining activity [%]": 94.7}
{"target": "Fibroblast growth factor receptor 3 (FGFR3, Homo sapiens, UniProt P22607)", "remaining activity [%]": 99.9}
